{"data": "Measured values of several laboratories", "note": "Each numbered part is a random draw from the data of one study; scales do not carry over between parts. Substitutions count along the parent as printed."}
{"data": "Set 1", "target": "Prothrombin, mature alpha-thrombin (F2, Homo sapiens, UniProt P00734)", "method": "aptamer microarray, sandwich", "form": "DNA with 2'F-ANA", "medium": "in vitro", "concentration": "200 nM", "setting": "whole 15-mer aptamer, many near background", "added": "Cy3 exosite-II aptamer, 400 nM", "reading": "higher = stronger binding", "oligonucleotide": "GGTTGGTGTGGTTGG"}
{"Modification": "2'F-ANA at 1 4 7 8 9 10 12 13", "mean fluorescence intensity": "69.9 a.u."}
{"Modification": "2'F-ANA at 2 4 8 11 12 15", "mean fluorescence intensity": "547 a.u."}
{"Modification": "2'F-ANA at 1 4 5 6 8 9 15", "mean fluorescence intensity": "60.2 a.u."}
{"Modification": "2'F-ANA at 2 3 10 11 12 13", "mean fluorescence intensity": "425 a.u."}
{"Modification": "2'F-ANA at 2 3 4 5 6 8 10 12 13 14 15", "mean fluorescence intensity": "64.7 a.u."}
{"Modification": "2'F-ANA at 2 5 6 7 8 9 10 11 12 14 15", "mean fluorescence intensity": "59.4 a.u."}
{"Modification": "2'F-ANA at 1 2 3 5 6 7 9 11 14 15", "mean fluorescence intensity": "49.9 a.u."}
{"Modification": "2'F-ANA at 1 4 5 7 12", "mean fluorescence intensity": "108 a.u."}
{"Modification": "2'F-ANA at 2 4 5 11 15", "mean fluorescence intensity": "53.9 a.u."}
{"Modification": "2'F-ANA at 4 7 8 13 14 15", "mean fluorescence intensity": "124 a.u."}
{"Modification": "2'F-ANA at 1 5 6 7 10 11 12 13 15", "mean fluorescence intensity": "46.9 a.u."}
{"Modification": "2'F-ANA at 1 8 10 11 13", "mean fluorescence intensity": "51 a.u."}
{"Modification": "2'F-ANA at 2 4 5 6 8 9 10 11 15", "mean fluorescence intensity": "47.6 a.u."}
{"data": "Set 2", "target": "Hepatocyte nuclear factor 3-alpha (Foxa1, Mus musculus, UniProt P35582, residues 1-468, full length assumed)", "method": "EMSA with sequencing", "form": "double-stranded DNA, one strand shown", "medium": "in vitro", "concentration": "10 and 20 nM", "setting": "whole designed probe, mean of two concentrations, ends assumed", "baseline": "negative control set to 0", "reading": "higher = stronger binding", "shared flanks, not repeated": "GTGAGCGGTGCCCATTGATGGGGAAC … TTTCACTGGGATCGTGGGGAC", "Residues (chain)": "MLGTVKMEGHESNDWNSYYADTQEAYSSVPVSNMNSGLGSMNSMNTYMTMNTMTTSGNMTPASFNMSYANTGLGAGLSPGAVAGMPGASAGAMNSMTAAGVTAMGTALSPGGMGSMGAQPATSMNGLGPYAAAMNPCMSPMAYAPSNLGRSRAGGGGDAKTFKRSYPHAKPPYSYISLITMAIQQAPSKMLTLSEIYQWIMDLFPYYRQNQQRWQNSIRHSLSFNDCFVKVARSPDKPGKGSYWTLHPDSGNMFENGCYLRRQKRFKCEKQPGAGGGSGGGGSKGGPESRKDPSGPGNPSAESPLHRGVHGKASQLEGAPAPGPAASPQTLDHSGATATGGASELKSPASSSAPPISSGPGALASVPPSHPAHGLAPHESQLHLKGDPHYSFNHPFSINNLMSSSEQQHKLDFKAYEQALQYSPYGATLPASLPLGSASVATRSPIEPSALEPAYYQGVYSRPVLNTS"}
{"Oligonucleotide": "AGGACTAGAGATGGAAAAGTGGAGACCTCGGGAGAGAAAAGTAAAAATAGGTGAGAATGTTCCATCTGAATCCCTGATGGGGACTGTGGGGCTAGATTACTTAAGGTTCTCCTTTGGGGAGGGCAGACAAGAACCAGTCCCAGCTGGGACTCTGGTGCAGAGGGATGGAAGGTGATCGTTTTGTGTGAGTCTC", "normalised bound fraction [ratio]": 0.0238}
{"Oligonucleotide": "AGGGAGTAGTGTTGACCCACCCCCACTCAACACTCAGTCCAGCCAGGCCAGCCCAGGAGGAAGTCATGTAGCCACGAATCTGCCCTGAATCACTGTTGACTTTTCCTTAGCTTTGTTTACAAAATTCATGACCACAGATAAATGGTACAACTCCTGGAATCAGGTTTTGTAGGGCTTGAAATGCATACAATTT", "normalised bound fraction [ratio]": 0.415}
{"Oligonucleotide": "ACATAACAATAAGTGGACACTCCATGTAAGTGAAGGCTTAAAAAAATAAATGAAAGGAAGAAAGAATCTCAATACTATTATCAGATAAGAAAAAGTAAACAAGTACATACAAGTACATTTTATAATGATAAGCTATTTAGTATATAGCACAAGTATGTTGAACATGAGTCTTTAAGTACCAAGTTACAAAAAC", "normalised bound fraction [ratio]": 0.399}
{"Oligonucleotide": "TCTTTCACTCAAGTGGTATATCCCACAGCCCTAAAGAAGCAAGGGAAATAAGAATTAGAACTAGACATCCCAGGAGACAAAGAATTCAACAAAGCAAACATTAACCAACACTTCCTGCTCCCTTCACTATTTACAGAAAATCTCTCTGGCTCAGGCCGGGCAGTGAGTTCATTTATTTCAACAAAATCAAAGA", "normalised bound fraction [ratio]": 0.286}
{"Oligonucleotide": "GAGAGCCCTGGAAGCTCAGAAGAGGCAAGAGGGGCCTACTTCTCCCTTGTTTGGGCTTTGTTTGCTAAATACCAATATTAGATTAGGCAACTCTGCAATCTAAACCAAGGCCTGGCCAGCTGCCCAGGGTGTTTAAAGTCCAAGACATGAAGGCAGGACGTGTGCCCGTGGACTTGCACACGCAAGCAGGCCG", "normalised bound fraction [ratio]": 0.23}
{"Oligonucleotide": "TTCCGTCTGTGGTCTATAGCGTTGCCTCTTGCCTTTTTACAAGGAAGAAAAACTTGTATAAACATCATGATTCATGGGTTTTAATCACTTTAGGTAATCTGTGCTGCCAGATGATCCTGGTTTGCAGATTCAGGACATGAAATCCTTCAACTGACACTGAGATTTGTTTAGAGTTGATGGTGGGAGAAGAGAG", "normalised bound fraction [ratio]": 0.0731}
{"Oligonucleotide": "GAGCTGCTTGCAATTGAGTTGTATGTATGCTTCCACTTAATACGTCCTGCCGAGCCTGTAAGCCAACAGGAATCTGCCCCACTTCCGGCTCTGTGTTTACCTACTCTCTTTTTATGTCTTATTCCCAGAATGACTGGGGACCAAAGGAATCCTTTGCAGGAGTTTTCTCCAGACAGACAGTTCCACATGCTAG", "normalised bound fraction [ratio]": 0.241}
{"Oligonucleotide": "GATTCCAGCCAGCAGAATAGGAATTTCAGAATACGATAAGGAGATGTTAAGGAAGGTCAGGCAGTAAAAAGAGGTTTCCAGACTCATGTGGTTTGTTGACTTAGCAAGTCAGGGAGAAGTCAATTGTTTGCTCTCCTGTTTTACAGTCTTTAGGTGTGGGCCAGCCCAGGGCCATTGATAGTCATTTTAGCCA", "normalised bound fraction [ratio]": 0.452}
{"data": "Set 3", "target": "ABI1, truncated, D143A, DHFR fusion (Arabidopsis thaliana)", "method": "DHFR PCA, deep sequencing", "medium": "yeast", "setting": "methotrexate growth selection, single substitutions", "added": "(+)-ABA 58 µM", "baseline": "wild-type fitted maximum", "reading": "higher = stronger binding", "starting sequence": "PYL1, truncated, DHFR fusion (Arabidopsis thaliana); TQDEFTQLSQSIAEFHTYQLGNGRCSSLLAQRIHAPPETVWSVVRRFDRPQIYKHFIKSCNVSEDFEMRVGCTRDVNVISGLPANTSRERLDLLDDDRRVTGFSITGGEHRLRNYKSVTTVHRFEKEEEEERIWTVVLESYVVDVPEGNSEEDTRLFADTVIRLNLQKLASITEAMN"}
{"Substitution": "V136T", "relative binding score": "70%"}
{"Substitution": "T101I", "relative binding score": "92.2%"}
{"Substitution": "K168Q", "relative binding score": "83.9%"}
{"Substitution": "I52H", "relative binding score": "78.9%"}
{"Substitution": "F15K", "relative binding score": "13.7%"}
{"Substitution": "G148P", "relative binding score": "60.5%"}
{"Substitution": "V121N", "relative binding score": "-1.02%"}
{"Substitution": "G21R", "relative binding score": "90.6%"}
{"Substitution": "N85Q", "relative binding score": "82.3%"}
{"Substitution": "I57A", "relative binding score": "31.1%"}
{"Substitution": "Y18L", "relative binding score": "63.4%"}
{"Substitution": "Q2P", "relative binding score": "88.9%"}
{"Substitution": "N165G", "relative binding score": "11.3%"}
{"Substitution": "I33W", "relative binding score": "4.38%"}
{"Substitution": "S9A", "relative binding score": "98.5%"}
{"Substitution": "E38A", "relative binding score": "73.3%"}
{"Substitution": "H55A", "relative binding score": "91.9%"}
{"Substitution": "T39R", "relative binding score": "88.5%"}
{"Substitution": "E4F", "relative binding score": "74%"}
{"Substitution": "G107M", "relative binding score": "25.7%"}
{"data": "Further values, each from its own experiment"}
{"Molecule": "PhoQ, residues 284 288 289 292 302 303 AGGCYF", "target": "PhoP, residues 12 14 15 18 19 LHHSG (Escherichia coli, UniProt P23836)", "assay": "Sort-seq, refers to: YFP reporter", "system": "E. coli", "conditions": "PhoQ-PhoP variant library, added: 10 µM Mg2+", "how to read": "baseline: high Mg2+ state, higher = stronger signaling", "endpoint": "fold induction", "result": 3.15}
{"note": "Excerpt of the above (set 1):"}
{"Modification": "2'F-ANA at 4 7 8 13 14 15", "mean fluorescence intensity": "124 a.u."}
{"Modification": "2'F-ANA at 2 4 5 6 8 9 10 11 15", "mean fluorescence intensity": "47.6 a.u."}
{"Modification": "2'F-ANA at 2 3 4 5 6 8 10 12 13 14 15", "mean fluorescence intensity": "64.7 a.u."}
{"Modification": "2'F-ANA at 2 4 8 11 12 15", "mean fluorescence intensity": "547 a.u."}
{"Modification": "2'F-ANA at 1 8 10 11 13", "mean fluorescence intensity": "51 a.u."}
{"Modification": "2'F-ANA at 1 5 6 7 10 11 12 13 15", "mean fluorescence intensity": "46.9 a.u."}
